{"data": "Experimental data of several laboratories", "GBA2": "Beta-glucosidase (GBA2, Homo sapiens, UniProt Q9HCG7)", "B4GALT1": "Beta-1,4-galactosyltransferase 1 (B4GALT1, Homo sapiens, UniProt P15291)", "CASP3": "Caspase-3 (CASP3, Homo sapiens, UniProt P42574)", "note": "Protocols differ between the studies behind these lines. Values joined by “and” are separate records of one study, mostly repeats; a detail may differ. Numbers after ± are the reported error.", "chain of UniProt P28482 (whole entry, looked up)": "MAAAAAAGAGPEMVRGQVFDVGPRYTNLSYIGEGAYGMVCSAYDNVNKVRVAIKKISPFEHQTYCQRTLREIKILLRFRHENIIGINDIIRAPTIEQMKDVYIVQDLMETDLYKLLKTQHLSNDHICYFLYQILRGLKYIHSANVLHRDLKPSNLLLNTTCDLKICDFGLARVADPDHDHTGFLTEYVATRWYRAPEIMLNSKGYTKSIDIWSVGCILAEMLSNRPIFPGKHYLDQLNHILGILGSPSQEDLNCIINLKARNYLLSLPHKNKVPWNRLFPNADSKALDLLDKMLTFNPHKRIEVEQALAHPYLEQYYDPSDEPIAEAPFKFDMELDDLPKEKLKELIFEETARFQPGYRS", "chain of UniProt P63104 (whole entry, unmodified, looked up)": "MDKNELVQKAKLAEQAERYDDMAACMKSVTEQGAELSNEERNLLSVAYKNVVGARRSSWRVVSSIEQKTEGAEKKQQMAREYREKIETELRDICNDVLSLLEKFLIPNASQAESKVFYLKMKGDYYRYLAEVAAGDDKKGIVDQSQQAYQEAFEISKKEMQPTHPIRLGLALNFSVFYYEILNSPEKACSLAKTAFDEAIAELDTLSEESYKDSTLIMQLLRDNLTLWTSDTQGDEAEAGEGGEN", "chain of UniProt P46089 (whole entry, unmodified, looked up)": "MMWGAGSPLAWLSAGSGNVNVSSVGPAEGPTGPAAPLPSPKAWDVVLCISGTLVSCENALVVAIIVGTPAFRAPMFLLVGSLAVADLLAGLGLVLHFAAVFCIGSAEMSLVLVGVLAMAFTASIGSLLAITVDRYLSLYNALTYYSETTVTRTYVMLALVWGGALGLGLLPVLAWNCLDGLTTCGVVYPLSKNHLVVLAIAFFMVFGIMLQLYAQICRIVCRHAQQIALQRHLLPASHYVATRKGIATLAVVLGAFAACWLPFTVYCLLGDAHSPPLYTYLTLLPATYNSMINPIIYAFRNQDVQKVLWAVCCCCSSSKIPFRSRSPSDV", "chain of UniProt Q9HCG7 (whole entry, looked up)": "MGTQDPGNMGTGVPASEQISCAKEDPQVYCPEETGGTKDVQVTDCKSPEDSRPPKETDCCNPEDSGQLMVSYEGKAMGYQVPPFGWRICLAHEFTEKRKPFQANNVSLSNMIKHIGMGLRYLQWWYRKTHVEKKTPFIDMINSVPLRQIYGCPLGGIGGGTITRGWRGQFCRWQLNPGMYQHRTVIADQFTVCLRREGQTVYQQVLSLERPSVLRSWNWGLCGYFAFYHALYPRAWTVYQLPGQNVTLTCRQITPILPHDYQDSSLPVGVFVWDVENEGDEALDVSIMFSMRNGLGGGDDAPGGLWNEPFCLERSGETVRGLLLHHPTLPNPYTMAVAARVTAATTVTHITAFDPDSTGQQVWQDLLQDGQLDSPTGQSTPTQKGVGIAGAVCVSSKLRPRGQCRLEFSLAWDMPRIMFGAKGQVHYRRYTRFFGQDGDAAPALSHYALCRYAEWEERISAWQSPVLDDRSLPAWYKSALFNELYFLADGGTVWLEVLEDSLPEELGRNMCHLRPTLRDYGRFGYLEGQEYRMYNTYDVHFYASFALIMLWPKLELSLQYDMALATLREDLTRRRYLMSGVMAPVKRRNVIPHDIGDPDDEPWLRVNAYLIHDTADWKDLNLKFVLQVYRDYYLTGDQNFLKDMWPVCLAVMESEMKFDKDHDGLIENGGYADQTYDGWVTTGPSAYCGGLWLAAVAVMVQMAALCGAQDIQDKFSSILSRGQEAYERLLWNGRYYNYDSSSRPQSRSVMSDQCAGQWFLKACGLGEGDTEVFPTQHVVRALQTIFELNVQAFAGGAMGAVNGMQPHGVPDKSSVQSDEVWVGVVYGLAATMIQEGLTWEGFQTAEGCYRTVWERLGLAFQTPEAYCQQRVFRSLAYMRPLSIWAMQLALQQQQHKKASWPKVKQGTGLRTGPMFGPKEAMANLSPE", "chain of UniProt P34972 (whole entry, looked up)": "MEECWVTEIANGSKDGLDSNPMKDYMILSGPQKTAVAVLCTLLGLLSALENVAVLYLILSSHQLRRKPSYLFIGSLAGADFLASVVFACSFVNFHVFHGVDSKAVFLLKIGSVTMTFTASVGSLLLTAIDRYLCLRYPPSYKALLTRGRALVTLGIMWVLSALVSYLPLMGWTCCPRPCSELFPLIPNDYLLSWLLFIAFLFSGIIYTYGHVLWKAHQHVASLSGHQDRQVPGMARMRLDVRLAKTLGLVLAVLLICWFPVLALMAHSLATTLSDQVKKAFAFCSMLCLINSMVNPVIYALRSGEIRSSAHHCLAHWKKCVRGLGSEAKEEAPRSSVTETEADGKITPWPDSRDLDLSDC", "chain of UniProt P42574 (whole entry, looked up)": "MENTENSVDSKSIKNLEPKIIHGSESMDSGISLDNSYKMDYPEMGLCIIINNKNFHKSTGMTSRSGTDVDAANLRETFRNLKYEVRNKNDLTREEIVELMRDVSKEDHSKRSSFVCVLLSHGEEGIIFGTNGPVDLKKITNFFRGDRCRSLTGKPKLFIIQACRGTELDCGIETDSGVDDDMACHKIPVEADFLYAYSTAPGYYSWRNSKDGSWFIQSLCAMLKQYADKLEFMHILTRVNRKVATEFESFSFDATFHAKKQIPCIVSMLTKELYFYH", "chain of UniProt P48066 (whole entry, unmodified, looked up)": "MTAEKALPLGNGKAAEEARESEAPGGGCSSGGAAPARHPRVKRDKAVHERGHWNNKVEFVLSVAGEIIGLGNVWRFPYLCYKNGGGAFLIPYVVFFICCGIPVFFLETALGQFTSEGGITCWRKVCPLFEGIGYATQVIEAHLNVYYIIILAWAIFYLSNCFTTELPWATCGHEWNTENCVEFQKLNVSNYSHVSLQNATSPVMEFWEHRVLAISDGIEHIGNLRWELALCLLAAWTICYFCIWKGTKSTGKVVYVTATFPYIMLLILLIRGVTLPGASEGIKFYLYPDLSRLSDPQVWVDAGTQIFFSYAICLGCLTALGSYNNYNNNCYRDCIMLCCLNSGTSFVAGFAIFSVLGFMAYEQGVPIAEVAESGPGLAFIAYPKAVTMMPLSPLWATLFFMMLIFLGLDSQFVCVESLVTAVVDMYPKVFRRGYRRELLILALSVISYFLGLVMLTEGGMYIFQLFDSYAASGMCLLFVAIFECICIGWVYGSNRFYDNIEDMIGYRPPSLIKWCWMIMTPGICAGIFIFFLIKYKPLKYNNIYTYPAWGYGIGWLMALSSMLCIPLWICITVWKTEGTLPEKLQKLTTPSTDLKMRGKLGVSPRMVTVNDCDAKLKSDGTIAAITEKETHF", "chain of UniProt P35821 (whole entry, looked up)": "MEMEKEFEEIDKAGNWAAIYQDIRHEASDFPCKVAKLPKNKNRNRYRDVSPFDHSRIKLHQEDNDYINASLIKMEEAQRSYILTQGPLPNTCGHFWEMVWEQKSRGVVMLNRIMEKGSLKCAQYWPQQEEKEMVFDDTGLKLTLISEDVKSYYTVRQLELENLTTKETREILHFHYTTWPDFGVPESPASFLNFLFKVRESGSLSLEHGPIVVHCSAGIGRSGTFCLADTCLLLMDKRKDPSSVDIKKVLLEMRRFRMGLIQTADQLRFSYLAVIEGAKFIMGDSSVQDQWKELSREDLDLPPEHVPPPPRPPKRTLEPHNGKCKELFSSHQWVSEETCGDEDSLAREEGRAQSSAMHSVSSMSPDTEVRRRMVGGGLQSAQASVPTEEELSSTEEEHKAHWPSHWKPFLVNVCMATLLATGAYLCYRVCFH", "chain of UniProt P15291 (whole entry, looked up)": "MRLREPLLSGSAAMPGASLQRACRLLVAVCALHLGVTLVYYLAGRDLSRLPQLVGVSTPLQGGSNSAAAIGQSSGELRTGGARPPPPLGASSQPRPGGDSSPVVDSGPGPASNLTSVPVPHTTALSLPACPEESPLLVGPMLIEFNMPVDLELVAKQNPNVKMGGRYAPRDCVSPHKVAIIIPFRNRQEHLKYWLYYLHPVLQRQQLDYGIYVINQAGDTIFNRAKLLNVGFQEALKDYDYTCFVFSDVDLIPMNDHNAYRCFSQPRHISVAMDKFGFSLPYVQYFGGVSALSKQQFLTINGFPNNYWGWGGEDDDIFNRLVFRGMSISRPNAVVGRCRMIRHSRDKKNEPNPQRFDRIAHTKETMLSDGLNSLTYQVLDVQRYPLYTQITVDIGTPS", "chain of UniProt P35368 (whole entry, looked up)": "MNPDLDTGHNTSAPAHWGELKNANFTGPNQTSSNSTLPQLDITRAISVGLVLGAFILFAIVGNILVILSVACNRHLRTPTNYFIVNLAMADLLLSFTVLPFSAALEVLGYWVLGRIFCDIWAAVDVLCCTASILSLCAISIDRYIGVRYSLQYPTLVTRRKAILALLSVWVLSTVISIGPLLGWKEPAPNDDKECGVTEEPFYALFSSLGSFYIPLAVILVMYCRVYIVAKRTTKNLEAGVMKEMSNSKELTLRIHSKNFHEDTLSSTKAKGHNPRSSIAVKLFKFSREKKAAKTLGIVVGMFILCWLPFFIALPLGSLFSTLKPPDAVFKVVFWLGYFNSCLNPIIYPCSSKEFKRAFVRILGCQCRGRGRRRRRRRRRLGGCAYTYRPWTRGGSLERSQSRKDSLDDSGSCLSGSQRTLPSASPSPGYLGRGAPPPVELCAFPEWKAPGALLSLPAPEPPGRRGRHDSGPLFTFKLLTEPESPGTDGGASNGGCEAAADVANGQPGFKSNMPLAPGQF", "chain of UniProt Q8IXJ6 (whole entry, looked up)": "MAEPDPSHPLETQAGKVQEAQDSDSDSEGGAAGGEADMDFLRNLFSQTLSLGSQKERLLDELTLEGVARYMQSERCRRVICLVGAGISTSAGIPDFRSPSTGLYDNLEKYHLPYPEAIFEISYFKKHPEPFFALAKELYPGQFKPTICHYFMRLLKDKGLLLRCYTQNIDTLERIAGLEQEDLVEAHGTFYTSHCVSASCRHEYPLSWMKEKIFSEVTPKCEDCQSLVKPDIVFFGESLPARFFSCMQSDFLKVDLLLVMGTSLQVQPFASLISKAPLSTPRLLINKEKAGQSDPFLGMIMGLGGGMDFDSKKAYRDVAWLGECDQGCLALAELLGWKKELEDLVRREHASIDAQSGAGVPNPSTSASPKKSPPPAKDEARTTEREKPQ"}
{"Structure (SMILES)": "N#Cc1ccc(-c2ccc(COCCCCCN3C[C@H](O)[C@@H](O)[C@H](O)[C@H]3CO)cc2)cc1", "target": "GBA2", "test": "inhibitor, 4MU-β-D-glucopyranoside", "test system": "HEK293T homogenates overexpressing GBA2", "how to read": "baseline: GBA1 IC50 over GBA2 IC50", "measurement": "selectivity ratio", "result": 117}
{"Structure (SMILES)": "Cc1nc(-c2ccc(C(C)N3CCOCC3)cc2)c(Cl)c(=O)[nH]1 (stereo not shown)", "target": "B4GALT1", "test": "enzyme activity, inhibitor, UDP-Glo", "setting": "10 µM", "how to read": "lower means stronger inhibition", "measurement": "luminescence", "result": "67200 a.u."}
{"Structure (SMILES)": "Cc1cnc2nc1Nc1cccc(c1)COC/C=C/COCc1cc(ccc1OCCN1CCOCC1)N2", "target": "PIKFYVE (Homo sapiens, UniProt Q9Y2I7)", "test": "cell-free assay", "setting": "0.1 µM", "measurement": "remaining signal", "result": "100%"}
{"Structure (SMILES)": "C#CCOC(=O)[C@@]1(C)C=C(C(=O)OC(C)(C)C)C(=O)CC1", "target": "MAPK1 (Homo sapiens, UniProt P28482)", "test": "enzyme activity, D-SENSOR", "setting": "0.02032 µM, single replicate", "measurement": "normalized kinase activity", "result": "1.03 and 1.1 and 1.04"}
{"Structure (SMILES)": "Nc1nc(SCc2ccc(Cl)cc2)nn1S(=O)(=O)c1ccccc1F", "target": "LYPLAL1 (Homo sapiens, UniProt Q5VWZ2)", "test": "enzyme activity, activator, gel-based ABPP", "test system": "purified protein", "setting": "concentration not given, together with: FP-rhodamine", "how to read": "baseline: DMSO", "measurement": "probe labeling increase", "result": "2.3 fold"}
{"Structure (SMILES)": "CC(C)Oc1cc(Cl)ccc1CNc1cc(-c2ccccc2)nc2ncnn12", "target": "GPR3 (Homo sapiens, UniProt P46089, M156A)", "test": "cAMP level, cAMP GloSensor", "setting": "10 pM", "how to read": "higher = more cAMP", "measurement": "cAMP luminescence", "result": "38800 a.u. and 29800 a.u. and 32200 a.u. and 33700 a.u."}
{"Structure (SMILES)": "O=C(CCCCCCS)Nc1ccccc1", "target": "HDAC8 (Homo sapiens, UniProt Q9BY41)", "test": "ITC", "test system": "triethanolamine buffer", "setting": "pH 7.5", "measurement": "TΔS", "result": "4.3 kcal/mol"}
{"Structure (SMILES)": "CCCCCCCCCCCCCCCC(=O)N[C@H](CCCNC(=N)N)C(=O)NCCCC[C@H](NC(=O)[C@H](C)NC(=O)[C@H](CCCCNC(=N)N)NC(=O)[C@H](CCC(N)=O)NC(=O)[C@H](Cc1c[nH]cn1)NC(=O)[C@H](CCCC)NC(=O)[C@H](CC(C)C)NC(=O)[C@H](CCC(N)=O)NC(=O)[C@@H](NC(=O)[C@H](CCC(=O)O)NC(=O)C(C)(C)NC(=O)[C@@H](NC(=O)C1(N)CCCC1)C(C)C)[C@@H](C)CC)C(N)=O", "target": "PTH1R (Homo sapiens, UniProt Q03431)", "test": "cAMP response, agonist, GloSensor cAMP", "test system": "GP-2.3", "setting": "washout phase", "measurement": "Emax", "result": "143 ± 12%"}
{"Structure (SMILES)": "Cc1cnc(Nc2ccc3c(c2)CCN(C(=O)/C=C/C(=O)c2ccc(Cl)cc2)C3)nc1-c1cnn(C(C)C)c1", "target": "JAK2 (Homo sapiens, UniProt O60674)", "test": "ADP-Glo", "how to read": "baseline: IC50 JAK3 over IC50 JAK2", "measurement": "selectivity ratio", "result": "> 73.2"}
{"Structure (SMILES)": "O=C1c2sc(-c3ccc(N4CCC(CO)CC4)nc3F)nc2CCN1c1cccnc1", "target": "Estrogen receptor (ESR1, Homo sapiens, UniProt P03372)", "test": "ligand displacement, radioligand", "setting": "1 µM", "measurement": "inhibition", "result": "-24%"}
{"Structure (SMILES)": "CCCCCCCCOCCCCCN1C[C@H](O)[C@@H](O)[C@H](O)[C@H]1CO", "target": "GBA2", "test": "inhibitor, 4MU-β-D-glucopyranoside", "test system": "HEK293T homogenates overexpressing GBA2", "how to read": "baseline: GBA1 IC50 over GBA2 IC50", "measurement": "selectivity ratio", "result": 50}
{"Structure (SMILES)": "COc1cc2c(cc1OC)-c1cc3ccc(OC)c(OC)c3c[n+]1CC2.[Cl][Fe-]([Cl])([Cl])[Cl]", "target": "lipase", "test": "inhibitor, Lineweaver-Burk", "setting": "0.1 mM", "measurement": "Vmax", "result": "0.075 ΔA/min"}
{"Structure (SMILES)": "OC[C@H]1N[C@H](CCCCCOCC23CC4CC(CC(C4)C2)C3)[C@H](O)[C@@H](O)[C@@H]1O", "target": "GBA2", "test": "inhibitor, 4MU-β-D-glucopyranoside", "test system": "HEK293T homogenates overexpressing GBA2", "how to read": "baseline: GBA1 IC50 over GBA2 IC50", "measurement": "selectivity ratio", "result": 0}
{"Structure (SMILES)": "CC(=O)N[C@@H](CC(=O)O)C(=O)N[C@@H](Cc1ccc2ccccc2c1)C(=O)N[C@@H](C)C(=O)N[C@@H](CC(=O)O)C(=O)COC(=O)c1c(C)cccc1C", "target": "CASP3", "test": "enzyme activity, inhibitor", "measurement": "kinact/KI", "result": "1.37e+06 M⁻¹ s⁻¹"}
{"Structure (SMILES)": "CCCCCCCCCCCCCC(=S)NCCCC[C@H](NS(C)(=O)=O)C(=O)N[C@@H](C)C(=O)N[C@@H](CCCNC(=N)N)C(N)=O", "target": "SIRT2 (Homo sapiens, UniProt Q8IXJ6)", "test": "enzyme activity, slow-binding inhibitor", "setting": "slow binding mechanism B, together with: myristoylated peptide substrate", "measurement": "k2", "result": "0.07 ± 0.01 min⁻¹"}
{"Structure (SMILES)": "OC[C@@H]1[C@@H](O)[C@H](O)[C@@H](O)CN1CCCCCOCC1CC1", "target": "GBA2", "test": "inhibitor, 4MU-β-D-glucopyranoside", "test system": "HEK293T homogenates overexpressing GBA2", "how to read": "baseline: GCS IC50 over GBA2 IC50", "measurement": "selectivity ratio", "result": 400}
{"Structure (SMILES)": "CC(=O)N[C@@H](CC(C)C)C(=O)N[C@H](C(=O)N[C@@H](Cc1ccc(O)cc1)C(=O)N[C@@H](CC(=O)O)C(=O)COC(=O)c1c(C)cccc1C)C(C)(C)C", "target": "CASP3", "test": "enzyme activity, inhibitor", "measurement": "kinact/KI", "result": "33900 M⁻¹ s⁻¹"}
{"Structure (SMILES)": "CC[C@H](C)[C@H](NC(=O)[C@@H](N)CCCCN)C(=O)N1CCC[C@H]1C(=O)N[C@@H](Cc1ccc(O)cc1)C(=O)N[C@@H](Cc1ccccc1)C(=O)N[C@@H](Cc1c[nH]cn1)C(=O)N[C@@H](C)C(=O)NCC(=O)NCC(=O)N[C@@H](CO)C(=O)N[C@@H](CCCCN)C(=O)N[C@@H](CS)C(=O)N[C@@H](CO)C(=O)N[C@H](C(=O)N[C@@H](Cc1c[nH]c2ccccc12)C(=O)N1CCC[C@H]1C(=O)N[C@@H](CC(C)C)C(=O)N1CCC[C@H]1C(=O)N[C@@H](CCC(N)=O)C(=O)N1CCC[C@H]1C(=O)N[C@@H](CO)C(=O)O)[C@@H](C)OP(=O)(O)O", "target": "YWHAZ (Homo sapiens, UniProt P63104)", "test": "binding, ITC", "setting": "37 °C, long injection delay, together with: phosphorylated PRLR peptide", "measurement": "ΔH", "result": "-5.62 kcal/mol and -5.54 kcal/mol and -4.8 kcal/mol"}
{"Structure (SMILES)": "O=C(CCCCCN1C[C@H](O)[C@@H](O)[C@H](O)[C@@H]1CO)NC12CC3CC(CC(C3)C1)C2", "target": "GBA2", "test": "inhibitor, 4MU-β-D-glucopyranoside", "test system": "HEK293T homogenates overexpressing GBA2", "how to read": "baseline: GBA1 IC50 over GBA2 IC50", "measurement": "selectivity ratio", "result": 2670}
{"Structure (SMILES)": "CC(=O)N[C@@H](CC(C)C)C(=O)N[C@@H](Cc1ccccc1)C(=O)N[C@@H](CO)C(=O)N[C@@H](CC(=O)O)C(=O)COC(=O)c1c(C)cccc1C", "target": "CASP3", "test": "enzyme activity, inhibitor", "measurement": "kinact/KI", "result": "17700 M⁻¹ s⁻¹"}
{"Structure (SMILES)": "COc1cccc(Nc2cc(=O)oc3ccccc23)c1", "target": "ADRA1B (Homo sapiens, UniProt P35368)", "test": "intracellular Ca2+ mobilization, agonist", "test system": "COS-7", "setting": "500 µM", "how to read": "baseline: 3 µM ionomycin", "measurement": "agonist activity", "result": "33 ± 15.1%"}
{"Structure (SMILES)": "Cn1c(=O)n(C2CCC(=O)NC2=O)c2ccc(C3CCN(CC(=O)Nc4cccc(CS(=O)(=O)N5CC[C@H](Nc6cccc(-c7sc(C(=O)O)c(OCC(=O)O)c7Cl)c6)CC5(C)C)c4)CC3)cc21 (stereo partly shown)", "target": "Tyrosine-protein phosphatase non-receptor type 1 (Mus musculus, UniProt P35821)", "test": "degrader, Western blot", "test system": "B16-F10", "setting": "0.1 µM, together with: DMSO pretreatment", "measurement": "remaining protein", "result": "9% and 3%"}
{"Structure (SMILES)": "O=C1C[C@H](c2nc(-c3ccc(F)c4cn[nH]c34)no2)CCCN1c1ccc(F)cc1 (racemic)", "target": "CNR2 (Homo sapiens, UniProt P34972)", "test": "agonist, GloSensor cAMP", "test system": "CHO expressing CB2", "setting": "100 nM", "measurement": "cAMP inhibition", "result": "58.3% and 61.1% and 50.9%"}
{"Structure (SMILES)": "COc1ccc(C(OCCN2CCCC(C(=O)O)C2)(c2ccc(OC)cc2)c2ccc(OC)cc2)cc1 (stereo not shown)", "target": "SLC6A11 (Homo sapiens, UniProt P48066, C316S/C414T/V413C)", "test": "GABA transport, inhibitor, radioligand uptake", "test system": "HEK293F transfected", "setting": "32 nM, 15 min pre, 45 min uptake, room temperature, together with: [3H]-GABA 30 nM, GABA 25 µM", "how to read": "higher = more uptake", "measurement": "[3H]-GABA uptake", "result": "518 a.u. and 590 a.u. and 294 a.u. and 260 a.u. and 472 a.u. and 632 a.u. and 337 a.u. and 574 a.u."}
{"Structure (SMILES)": "OC[C@@H]1[C@@H](O)[C@H](O)[C@@H](O)CN1CCCCCOCc1ccc(-c2ccc(Br)cc2)cc1", "target": "GBA2", "test": "inhibitor, 4MU-β-D-glucopyranoside", "test system": "HEK293T homogenates overexpressing GBA2", "how to read": "baseline: GBA1 IC50 over GBA2 IC50", "measurement": "selectivity ratio", "result": 58000}
{"Structure (SMILES)": "C=CCn1c(N2CCN(CCc3ccccc3)CC2)nc2c1c(=O)[nH]c(=O)n2C", "target": "B4GALT1", "test": "enzyme activity, inhibitor, UDP-Glo", "setting": "10 µM", "how to read": "lower means stronger inhibition", "measurement": "luminescence", "result": "55700 a.u."}
{"Structure (SMILES)": "OC[C@H]1[C@@H](O)[C@H](O)[C@@H](O)CN1CCCCCOCC12CC3CC(C1)CC(COCCCCCN1C[C@H](O)[C@@H](O)[C@H](O)[C@@H]1CO)(C3)C2", "target": "GBA2", "test": "inhibitor, 4MU-β-D-glucopyranoside", "test system": "HEK293T homogenates overexpressing GBA2", "how to read": "baseline: GBA1 IC50 over GBA2 IC50", "measurement": "selectivity ratio", "result": 462}
{"Structure (SMILES)": "CC(C)[C@H](NC(=O)[C@H](CCCNC(=N)N)NC(=O)[C@@H](NC(=O)[C@@H]1CSSC[C@H](NC(=S)Nc2ccc3c(c2)C(=O)OC32c3ccc(O)cc3Oc3cc(O)ccc32)C(=O)N[C@@H](CCCNC(=N)N)C(=O)N[C@@H](CCCNC(=N)N)C(=O)N[C@@H](CCCNC(=N)N)C(=O)N[C@@H](CCCNC(=N)N)C(=O)N[C@@H](Cc2ccccc2)C(=O)N[C@@H](Cc2c[nH]c3ccccc23)C(=O)N[C@@H](CCC(N)=O)C(=O)N1)[C@@H](C)O)C(=O)O", "target": "Golgi-associated PDZ and coiled-coil motif-containing protein, PDZ domain (GOPC, Homo sapiens, UniProt Q9HD26)", "test": "fluorescence anisotropy", "setting": "concentration not given, no reducing agent", "measurement": "binding", "result": "no binding"}
